# Measurements collected from several papers.
# Numbered parts are unrelated; each lists some results of a single study. Positions count from the first letter of the parent shown.

# Set 1 — target: CCND3, cyclin fold, Cln2 fusion (human); method: yeast growth competition, sequencing; sample: yeast; setting: weak parent motif; baseline: not given; direction: higher = stronger binding
# Starting sequence: DNAH7 docking peptide (human); HELFQRLDFDNDG; partner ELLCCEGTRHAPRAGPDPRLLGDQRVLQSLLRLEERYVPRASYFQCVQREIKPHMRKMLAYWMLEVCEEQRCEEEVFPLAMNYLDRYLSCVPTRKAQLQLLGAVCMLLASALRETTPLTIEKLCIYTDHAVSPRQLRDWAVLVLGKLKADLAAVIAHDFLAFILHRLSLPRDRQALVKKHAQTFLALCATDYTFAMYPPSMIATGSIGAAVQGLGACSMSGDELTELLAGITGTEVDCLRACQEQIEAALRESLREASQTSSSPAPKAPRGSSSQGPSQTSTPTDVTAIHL
Substitution,normalised enrichment score
HELFARLDFDNDG [Q5A],-0.0262
AELFQRLDFDNDG [H1A],-0.175
HELAQRLDFDNDG [F4A],-0.186
HELFQRLDFDNAG [D12A],-0.0768
HELFQRLDFDADG [N11A],-0.244
HELFQRADFDNDG [L7A],-0.315
HELFQRLDFDNDA [G13A],-0.33

# Set 2 — method: protein binding microarray; molecule type: double-stranded DNA, one strand shown; sample: in vitro; concentration: not given; baseline: not given; direction: higher = stronger binding
# Target: Histone acetyltransferase KAT6A, winged helix 1, GST fusion (KAT6A, Homo sapiens, UniProt Q92794, residues 1-85)
# Setting: 8-mer, flanks averaged, mean of 2 arrays, mostly near background
# Residues (chain): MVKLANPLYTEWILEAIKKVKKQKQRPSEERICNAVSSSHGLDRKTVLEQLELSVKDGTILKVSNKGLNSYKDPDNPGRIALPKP
Strand,E-score
AGCGTGGG,0.0423
GGGACATA,-0.138
AACGTAAA,-0.0417
CTTTCTCC,-0.0824
CTTCGCAC,0.0803
AATACTAT,-0.0577
GGAAACGA,-0.111
TTACAGAA,-0.198
CAGCCCGA,-0.0237
CTCGCAAC,-0.0807
TAATTTAA,-0.0837
ACACAGTG,-0.168
CGGTGCAA,0.123
AGCCAGGG,-0.104
GAAGTCCC,0.0641
GCCGTACA,0.241
CCAGCTGC,-0.0481
CTAGAAAA,-0.117
ACGGTCTG,-0.002
CGCAGGGA,0.0617
GGCAGGGA,-0.107
CTTCTTAC,0.0883
GTTGTGAA,-0.305
CGGAGTAG,0.236
CGCACGCG,0.421

# Set 3 — method: DHFR PCA, deep sequencing; sample: yeast; together with: (+)-ABA 4.8 µM; baseline: wild-type fitted maximum; direction: higher = stronger binding
# Target: ABI1, truncated, D143A, DHFR fusion (Arabidopsis thaliana)
# Setting: methotrexate growth selection, single substitutions
# Starting sequence: PYL1, truncated, DHFR fusion (Arabidopsis thaliana); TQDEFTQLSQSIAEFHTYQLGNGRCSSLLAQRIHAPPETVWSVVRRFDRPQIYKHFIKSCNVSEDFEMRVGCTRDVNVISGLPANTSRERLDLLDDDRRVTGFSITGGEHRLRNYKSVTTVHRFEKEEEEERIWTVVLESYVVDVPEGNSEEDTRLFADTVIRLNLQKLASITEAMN
Substitution,relative binding score [%]
T39L,78.1
V70P,77
V44S,-4.39
R132M,78.5
R69E,66.1
D65Q,60.6
T154A,30.1
S171Y,67.4
R99V,-11.5
S140I,1.31
I162C,21.2
H16W,10.4
E174K,15.5
D96G,1.01
V121A,16.5
S80Y,40.5

# Set 4 — target: UBE2Z UBC core domain (UniProt Q9H832); method: yeast two-hybrid; sample: yeast; setting: mostly zero background; baseline: not given; direction: higher = stronger interaction
# B1: HLTF RING domain (UniProt Q14527); chain LILSSGSDEECAICLDSLTVPVITHCAHVFCKPCICQVIQNEQPHAKCPLCRNDIHEDNLLE
# B2: MKRN3 RING domain (UniProt Q13064); chain FAVQRGMDKVCGICMEVVYEKANPNDRRFGILSNCNHSFCIRCIRRWRSARQFENRIVKSCPQCRVTSELVIPSE
# B3: NFX1 RING domain (UniProt Q12986); chain IEQLTTEKYECMVCCELVRVTAPVWSCQSCYHVFHLNCIKKWARSPASQADGQSGWRCPACQNVSAHVPNTY
# B4: BFAR RING domain (UniProt Q9NZS9); chain GPQISVSEFSCHCCYDILVNPTTLNCGHSFCRHCLALWWASSKKTECPECREKWEGFPKVS
# B5: RNF6 RING domain (UniProt Q9Y252); chain NSIDSELGKICSVCISDYVTGNKLRQLPCMHEFHIHCIDRWLSENCTCPICRQPVLGSNIAN
# B6: TRIM41 RING domain (UniProt Q8WV44); chain PVQTLQEEAVCAICLDYFTDPVSIGCGHNFCRVCVTQLWGGEDEEDRDELDREEEEEDGEEE
# B7: ZMYND11 RING domain (UniProt Q15326); chain DEIDWETENHDWYCFECHLPGEVLICDLCFRVYHSKCLSDEFRLRDSSSPWQCPVCRSIKKKNTNKQEM
# B8: CNOT4 RING domain (UniProt O95628); chain MSRSPDAKEDPVECPLCMEPLEIDDINFFPCTCGYQICRFCWHRIRTDENGLCPACRKPYPED
# B9: MARCHF1 RING domain (UniProt Q8TCQ1); chain TAPRSQSRLSVCPSTQDICRICHCEGDEESPLITPCRCTGTLRFVHQSCLHQWIKSSDTRCCELCKYDFIMETKLKPLRKWE
# Target sequence (chain): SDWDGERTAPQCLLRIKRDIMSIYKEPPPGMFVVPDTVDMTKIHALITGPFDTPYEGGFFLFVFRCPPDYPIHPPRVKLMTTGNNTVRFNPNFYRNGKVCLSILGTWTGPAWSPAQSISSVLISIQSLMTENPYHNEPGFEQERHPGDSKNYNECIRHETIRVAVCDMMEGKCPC
Molecule,lacZ reporter activity
B1 (HLTF RING domain),17100
B2 (MKRN3 RING domain),0
B3 (NFX1 RING domain),0
B4 (BFAR RING domain),0
B5 (RNF6 RING domain),0
B6 (TRIM41 RING domain),0
FAEQPSVKLCCQLCCSVFKDPVITTCGHTFCRRCALKSEKCPVDNVKLTVVVNNI (TRAF7 RING domain (UniProt Q6Q0C0)),0
B7 (ZMYND11 RING domain),0
B8 (CNOT4 RING domain),0
ASEEEFQFLRCQQCQAEAKCPKLLPCLHTLCSGCLEASGMQCPICQAPWPLGADTP (PML RING domain (UniProt P29590)),0
LEALSSDFLACKICLEQLRAPKTLPCLHTYCQDCLAQLADGGRVRCPECRETVPVPPEGV (TRIM56 RING domain (UniProt Q9BRZ2)),0
B9 (MARCHF1 RING domain),0

# A few entries again (set 2):
Strand,E-score
GAAGTCCC,0.0641
GCCGTACA,0.241
CCAGCTGC,-0.0481
